Published values pooled from the literature.
Protocols differ between the studies behind these lines. Several values in a cell are separate wells, animals, samples, runs or records. ± marks the error that the study gave.

SMILES | test | system | conditions | how to read | quantity | result
CC(=O)N[C@H](C(=O)N[C@@H](CCCC(=O)OC(C)(C)C)C(=O)N[C@@H](CCC1CCCCC1)C(=O)N[C@@H](CC(=O)O)C(=O)COC(=O)c1c(C)cccc1C)C(C)(C)C |  | C57BL/6N mouse female, liver | intraperitoneal, dose not given, 24 h |  | tissue concentration | 4.02 mM and 3.63 mM and 11.7 mM
CC(C)C[C@@H](NC(=O)[C@@H](CCCCN)NC(=O)CNC(=O)CNC(=O)[C@@H]1CSSC[C@H](N)C(=O)NCC(=O)N[C@@H](CCCNC(=N)N)C(=O)N[C@@H](CCCNC(=N)N)C(=O)N[C@@H](C)C(=O)NCC(=O)NCC(=O)N[C@@H](CO)C(=O)N1)C(=O)N[C@H](C)C(=O)N[C@H](CCCCN)C(=O)N[C@H](CC(C)C)C(=O)N[C@H](C)C(=O)N[C@H](CCCCN)C(=O)N[C@H](CCCCN)C(=O)N[C@H](CC(C)C)C(=O)N[C@H](C)C(=O)N[C@H](CCCCN)C(=O)N[C@H](CC(C)C)C(=O)N[C@H](C)C(=O)N[C@H](CCCCN)C(=O)O | immunohistochemistry | mouse, brain and liver | 10 mg/kg, 20 min |  | tissue detection | not detected
CSCC[C@H](NC(=O)CNC(=O)[C@H](CCCCN)NC(=O)[C@H](CC(C)C)NC(=O)[C@@H]1CCCN1C(=O)[C@H](CO)NC(=O)[C@H](Cc1c[nH]cn1)NC(=O)[C@H](Cc1c[nH]c2ccccc12)NC(=O)[C@H](CCCNC(=N)N)NC(=O)[C@H](CC(C)C)NC(=O)[C@H](CCCNC(=N)N)NC(=O)[C@H](Cc1c[nH]c2ccccc12)NC(=O)[C@H](CS)NC(=O)CCCCCNC(=O)CN1CCN(CC(=O)O)CCN(CC(=O)O)CCN(CC(=O)O)CC1)C(=O)O [copper-64 labelled] |  | BALB/c nude mouse, Huh-7 tumour, brain | intravenous, 1.85 MBq, 18 h |  | tissue uptake | 0.24 %ID/g
CN1Cc2cc(Cl)ccc2-n2c(nnc2C2CCN(c3cccc([18F])n3)CC2)C1 |  | C57BL/6 mouse male, heart | intravenous, 3.7 MBq, 60 min |  | tissue uptake | 3.25 ± 0.43 %ID/g
CSCC[C@H](N)C(=O)N[C@@H](C)C(=O)N[C@@H](Cc1c[nH]c2ccccc12)C(=O)N[C@@H](Cc1c[nH]cn1)C(=O)N[C@@H](CC(=O)O)C(=O)N[C@@H](CC(=O)O)C(=O)N[C@@H](CCC(=O)O)C(=O)N[C@@H](CCC(=O)O)C(=O)N[C@@H](Cc1ccccc1)C(=O)N[C@@H](C)C(=O)N[C@@H](CCCNC(=N)N)C(=O)N[C@@H](CCCNC(=N)N)C(=O)N[C@@H](CCCNC(=N)N)C(=O)N[C@@H](CCCNC(=N)N)C(=O)NCCCCCC(=O)NCCCCC(NC(=O)CCCCCNC(=O)[C@H](CCCNC(=N)N)NC(=O)[C@H](CCCNC(=N)N)NC(=O)[C@H](CCCNC(=N)N)NC(=O)[C@H](CCCNC(=N)N)NC(=O)[C@H](C)NC(=O)[C@H](Cc1ccccc1)NC(=O)[C@H](CCC(=O)O)NC(=O)[C@H](CCC(=O)O)NC(=O)[C@H](CC(=O)O)NC(=O)[C@H](CC(=O)O)NC(=O)[C@H](Cc1c[nH]cn1)NC(=O)[C@H](Cc1c[nH]c2ccccc12)NC(=O)[C@H](C)NC(=O)[C@@H](N)CCSC)C(=O)NCCCCC(NC(=O)C(CCCCNC(=O)CCCCCNC(=O)[C@H](CCCNC(=N)N)NC(=O)[C@H](CCCNC(=N)N)NC(=O)[C@H](CCCNC(=N)N)NC(=O)[C@H](CCCNC(=N)N)NC(=O)[C@H](C)NC(=O)[C@H](Cc1ccccc1)NC(=O)[C@H](CCC(=O)O)NC(=O)[C@H](CCC(=O)O)NC(=O)[C@H](CC(=O)O)NC(=O)[C@H](CC(=O)O)NC(=O)[C@H](Cc1c[nH]cn1)NC(=O)[C@H](Cc1c[nH]c2ccccc12)NC(=O)[C@H](C)NC(=O)[C@@H](N)CCSC)NC(=O)CCCCCNC(=O)[C@H](CCCNC(=N)N)NC(=O)[C@H](CCCNC(=N)N)NC(=O)[C@H](CCCNC(=N)N)NC(=O)[C@H](CCCNC(=N)N)NC(=O)[C@H](C)NC(=O)[C@H](Cc1ccccc1)NC(=O)[C@H](CCC(=O)O)NC(=O)[C@H](CCC(=O)O)NC(=O)[C@H](CC(=O)O)NC(=O)[C@H](CC(=O)O)NC(=O)[C@H](Cc1c[nH]cn1)NC(=O)[C@H](Cc1c[nH]c2ccccc12)NC(=O)[C@H](C)NC(=O)[C@@H](N)CCSC)C(N)=O (stereo partly shown) |  | C57BL/6 mouse female, liver | dose not given, 3 h | reference: total | tissue distribution | 7.5% and 5.83% and 6.61%
C[C@H](O)[C@@H](NC(=O)[C@H]1CCCN1C(=O)[C@@H](CCCCN)NC(=O)[C@@H](CO)NC(=O)[C@@H](Cc1ccc(O)cc1)NC(=O)[C@@H](CC(N)=O)NC(=O)CCOCCOCCOCCNC(=O)CN1CCN(CC(=O)O)CCN(CC(=O)O)CCN(CC(=O)O)CC1)C(=O)N[C@H](CC(=O)O)C(=O)N[C@H](CCCNC(=N)N)C(=O)N[C@H](CCC(N)=O)C(=O)N[C@H](Cc1ccc(O)cc1)C(=O)N[C@H](Cc1c[nH]cn1)C(=O)N[C@H](Cc1ccccc1)C(N)=O [copper-64 labelled] | ex vivo gamma counting | C57BL/6J mouse, male, normal, testis | intravenous, 1.85 MBq, 40 min |  | tissue uptake | 0.3 ± 0.01 %ID/g
CC[C@H](C)[C@H](NC(=O)[C@H](CCCNC(=N)N)NC(=O)[C@H](CCCCN)NC(=O)[C@H](Cc1ccc(O)cc1)NC(=O)[C@H](CC(=O)O)NC(=O)[C@H](C)NC(=O)CNC(=O)CCOCCOCCOCCNC(=O)CN1CCN(CC(=O)O)CCN(CC(=O)O)CCN(CC(=O)O)CC1)C(=O)N[C@H](C(=O)N[C@@H](CC(C)C)C(=O)N[C@@H](CCCCN)C(=O)N[C@H](C(=O)N[C@@H](CC(N)=O)C(N)=O)C(C)C)[C@@H](C)O [copper-64 labelled] | ex vivo gamma counting | male C57BL/6J mouse, B16-F10 tumour, intestinal lymph node | intravenous, 1.85 MBq, 100 min |  | tissue uptake | 0.404 ± 0.127 %ID/g
CC[C@H](C)[C@H](NC(=O)[C@H](CCCCN)NC(=O)CNC(=O)[C@H](CC(C)C)NC(=O)[C@H](Cc1ccccc1)NC(=O)[C@H](CCCCN)NC(=O)[C@H](CO)NC(=O)[C@H](Cc1ccccc1)NC(=O)[C@H](Cc1c[nH]c2ccccc12)NC(=O)[C@H](CCC(N)=O)NC(=O)[C@@H](NC(=O)[C@H](Cc1ccccc1)NC(=O)CCCCCNC(=O)CN1CCN(CC(=O)O)CCN(CC(=O)O)CCN(CC(=O)O)CC1)C(C)C)C(=O)N[C@@H](CCC(=O)O)C(=O)N1CCC[C@H]1C(=O)N[C@@H](CC(=O)O)C(=O)N[C@H](C(=O)N[C@@H](CO)C(=O)N[C@@H](CCC(N)=O)C(=O)N[C@H](C(=O)N[C@@H](CCC(N)=O)C(=O)N[C@@H](CC(=O)O)C(=O)N1CCC[C@H]1C(=O)N[C@@H](CC(N)=O)C(=O)N[C@@H](CC(=O)O)C(=O)N[C@@H](CCC(N)=O)C(=O)N[C@@H](Cc1ccc(O)cc1)C(=O)N[C@@H](CCC(=O)O)C(=O)N1CCC[C@H]1C(=O)N[C@@H](Cc1ccccc1)C(=O)O)C(C)C)C(C)C [copper-64 labelled] |  | C57BL/6 male mouse, tumour-naive, thymus | 0.5 h |  | tissue uptake | 2.49 ± 0.3 %ID/g
CSCC[C@H](N)C(=O)N[C@@H](C)C(=O)N[C@@H](CCCNC(=N)N)C(=O)N[C@@H](CCCNC(=N)N)C(=O)N[C@@H](CC(=O)O)C(=O)N[C@@H](CCCCN)C(=O)N[C@H](C(=O)N[C@@H](CC(=O)O)C(=O)N[C@@H](Cc1ccccc1)C(=O)N[C@@H](C)C(=O)N[C@@H](CCCNC(=N)N)C(=O)N[C@@H](CCCNC(=N)N)C(=O)N[C@@H](CCCNC(=N)N)C(=O)N[C@@H](CCCNC(=N)N)C(=O)NCCCCCC(=O)NCCCCC(NC(=O)CCCCCNC(=O)[C@H](CCCNC(=N)N)NC(=O)[C@H](CCCNC(=N)N)NC(=O)[C@H](CCCNC(=N)N)NC(=O)[C@H](CCCNC(=N)N)NC(=O)[C@H](C)NC(=O)[C@H](Cc1ccccc1)NC(=O)[C@H](CC(=O)O)NC(=O)[C@@H](NC(=O)[C@H](CCCCN)NC(=O)[C@H](CC(=O)O)NC(=O)[C@H](CCCNC(=N)N)NC(=O)[C@H](CCCNC(=N)N)NC(=O)[C@H](C)NC(=O)[C@@H](N)CCSC)[C@@H](C)O)C(=O)NCCCCC(NC(=O)C(CCCCNC(=O)CCCCCNC(=O)[C@H](CCCNC(=N)N)NC(=O)[C@H](CCCNC(=N)N)NC(=O)[C@H](CCCNC(=N)N)NC(=O)[C@H](CCCNC(=N)N)NC(=O)[C@H](C)NC(=O)[C@H](Cc1ccccc1)NC(=O)[C@H](CC(=O)O)NC(=O)[C@@H](NC(=O)[C@H](CCCCN)NC(=O)[C@H](CC(=O)O)NC(=O)[C@H](CCCNC(=N)N)NC(=O)[C@H](CCCNC(=N)N)NC(=O)[C@H](C)NC(=O)[C@@H](N)CCSC)[C@@H](C)O)NC(=O)CCCCCNC(=O)[C@H](CCCNC(=N)N)NC(=O)[C@H](CCCNC(=N)N)NC(=O)[C@H](CCCNC(=N)N)NC(=O)[C@H](CCCNC(=N)N)NC(=O)[C@H](C)NC(=O)[C@H](Cc1ccccc1)NC(=O)[C@H](CC(=O)O)NC(=O)[C@@H](NC(=O)[C@H](CCCCN)NC(=O)[C@H](CC(=O)O)NC(=O)[C@H](CCCNC(=N)N)NC(=O)[C@H](CCCNC(=N)N)NC(=O)[C@H](C)NC(=O)[C@@H](N)CCSC)[C@@H](C)O)C(N)=O)[C@@H](C)O (stereo partly shown) |  | mouse C57BL/6 female, spine | 3 h, radioiodinated peptide | reference: total radioactivity | tissue distribution | 4.97% and 9.38%
CC[C@H](C)[C@H](NC(=O)[C@H](CCCNC(=N)N)NC(=O)[C@H](CCCCN)NC(=O)[C@H](Cc1ccc(O)cc1)NC(=O)[C@H](CC(=O)O)NC(=O)[C@H](C)NC(=O)CNC(=O)CCOCCOCCOCCNC(=O)CN1CCN(CC(=O)O)CCN(CC(=O)O)CCN(CC(=O)O)CC1)C(=O)N[C@H](C(=O)N[C@H](C(=O)N[C@@H](CCCCN)C(=O)N[C@H](C(=O)N[C@@H](CC(N)=O)C(N)=O)C(C)C)C(C)C)[C@@H](C)O [copper-64 labelled] | ex vivo gamma counting | male C57BL/6J mouse, B16-F10 tumour, intestinal lymph node | intravenous, 1.85 MBq, 20 min |  | tissue uptake | 0.972 ± 0.434 %ID/g

Excerpt of the above:
SMILES | test | system | conditions | how to read | quantity | result
C[C@H](O)[C@@H](NC(=O)[C@H]1CCCN1C(=O)[C@@H](CCCCN)NC(=O)[C@@H](CO)NC(=O)[C@@H](Cc1ccc(O)cc1)NC(=O)[C@@H](CC(N)=O)NC(=O)CCOCCOCCOCCNC(=O)CN1CCN(CC(=O)O)CCN(CC(=O)O)CCN(CC(=O)O)CC1)C(=O)N[C@H](CC(=O)O)C(=O)N[C@H](CCCNC(=N)N)C(=O)N[C@H](CCC(N)=O)C(=O)N[C@H](Cc1ccc(O)cc1)C(=O)N[C@H](Cc1c[nH]cn1)C(=O)N[C@H](Cc1ccccc1)C(N)=O [copper-64 labelled] | ex vivo gamma counting | C57BL/6J mouse, male, normal, testis | intravenous, 1.85 MBq, 40 min |  | tissue uptake | 0.3 ± 0.01 %ID/g
